Measurements gathered from unrelated publications.
A part holds a random share of what one study measured.

Block 1 — method: RNA Bind-n-Seq; molecule type: RNA; matrix: in vitro; tested at: 365 nM; baseline: no-protein control; reading: higher = stronger binding
Target: RNA binding protein fox-1 homolog 2, RRM domain, GST-SBP tag (RBFOX2, Homo sapiens, UniProt O43251-10, residues 100-194)
Setting: natural RNA segment, single round, ends assumed
Sequence	RBNS enrichment (R)
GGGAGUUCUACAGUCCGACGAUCAGCACAUGUCCAGGAGGGUUGCUGUCGCACUAGCACCUAGGUAACACCAACUAGAUUAUUAUCAGGUACAGAAUCCUGUCCUGAACCUGGGCAAGGCUGGAGGUACUGUAUGGAAUUCUCGGGUGCCAA	0.421
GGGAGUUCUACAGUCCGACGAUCUAGAAUUUCUGGGUGGAGACCCAACUACAAUGACAUUGUCAUGCCAGAACUAUAAAGAUAAUUAGAGUUAAAAGUUGUUUAAAUUGUGCCCUUAAAUACAGCAGAACCUGUGGAAUUCUCGGGUGCCAA	0.439
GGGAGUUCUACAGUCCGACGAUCUGGCCACAACACAUAAGGUGCCCCGGGUGGCAGCCAUCACAGUAACUUCCAGGUGGUCUCCUGAGUGUCUGGCUUGAUAAUGCCCUCAAUUCAGGAGUGAGCCUCUGUGAUGGAAUUCUCGGGUGCCAA	0.407
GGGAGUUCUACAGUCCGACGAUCCUGUGUGGACAUUGUUUGAGGAGCUAGAAAGAAGAUCGGCUGGGGAUCACGAGCCCCUACUUCCCAAAGAAUAAAUGGGCUUAGUGAUCAAGGUUCUUCAAGGGGUCUUUUGGAAUUCUCGGGUGCCAA	0.58
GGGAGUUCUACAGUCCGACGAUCCGAGGAGGGGCGGGGGCAGGGGCUGCAGCCCCCAGCGCUGCCUUUGCGGAUUCUGUUUUUGAGCCGUGGACUUGGGUUGUAAAUUUAUUUGUGGGGAGUGCGCUCCAGGAUGGAAUUCUCGGGUGCCAA	2.35
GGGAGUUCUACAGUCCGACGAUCGCAAGGGGCUGCAUGACCUACCAGGACAGAACUUUCCCCAAUUACAGGGUGACUCACAGCCGCAUUGGUGACUCACUUCAAUGUGUCAUUUCCGGCUGCUGUGUGUGAGCUGGAAUUCUCGGGUGCCAA	17.1
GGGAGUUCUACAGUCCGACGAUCCAGUUGCUGAGCCUGCUCGUGAACACCAUUGCAAGCCAUUGCUGUCAAGCUUCAUGAGUUAAAUUUAACUGUUAGAGAGGAGAAAAGCAUAGCAGUCAUUUGGAACGAUCUGGAAUUCUCGGGUGCCAA	0.424
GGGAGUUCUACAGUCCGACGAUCAACAUUUCAGCAGGCCACCUCCCCUCAUCUUCCCCGCCCUGUCCAGCGCCCUGGCAAAGGCUGACAACUGGCUGUCUUGGGGCCGAACAGCCCCUGCCCUGCCUCUGAGGUGGAAUUCUCGGGUGCCAA	0.379

Block 2 — method: protein-binding microarray; molecule type: double-stranded DNA, one strand shown; matrix: in vitro; tested at: 2540 nM top; setting: 60-bp whole probe; with: salmon DNA 0.4 mg/ml; baseline: random background probes; reading: higher = stronger binding; constant ends, left off below: GCCTAGCAC … GTCTTGATTCGCTTGACGCTGCTG
Target: Interferon regulatory factor 3, full length, phosphomimetic (IRF3, Homo sapiens, UniProt Q14653, residues 1-427, S386D/S396D/S398D/S402D/T404D/S405D)
Target sequence (chain): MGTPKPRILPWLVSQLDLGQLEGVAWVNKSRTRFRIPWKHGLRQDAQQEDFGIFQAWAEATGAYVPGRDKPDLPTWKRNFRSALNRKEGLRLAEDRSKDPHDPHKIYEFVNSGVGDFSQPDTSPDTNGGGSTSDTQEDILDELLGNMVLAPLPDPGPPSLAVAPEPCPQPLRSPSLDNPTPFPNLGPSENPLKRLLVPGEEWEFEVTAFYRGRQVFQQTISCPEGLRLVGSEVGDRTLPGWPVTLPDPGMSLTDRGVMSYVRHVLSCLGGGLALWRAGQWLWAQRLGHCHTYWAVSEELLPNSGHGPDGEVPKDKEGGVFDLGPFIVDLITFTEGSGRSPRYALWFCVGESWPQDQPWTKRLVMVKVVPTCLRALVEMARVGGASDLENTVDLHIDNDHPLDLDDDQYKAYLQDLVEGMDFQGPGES
Sequence	fitted relative affinity
TTAGAGATCGGGTTTCGATTAGTGCTA	1.93 z-score
TTAGATATCATTATCGATTAGTGCTAG	1.47 z-score
TGCTCCTTCTGACATCAACCCGTGCTA	1.33 z-score
GACGTTTTCGGTTCCGGGACGTGCTAG	6.48 z-score
TACGGTCTCCTTTTCCTGACGTGCTAG	4.53 z-score
TTAGGTTTCGACGTTCGGTTAGTGCTA	1.79 z-score
TCACTTTTATTTTTTTTACTGTGCTAG	2.28 z-score
GACGATTTCGACACTGGGGACGTGCTA	1.25 z-score
TCATACCTCATCTTCCTCACTGTGCTA	0.769 z-score
TTCTACTTCTCTTTTTGCTTGTGCTAG	2.98 z-score

Block 3 — method: universal PBM; molecule type: double-stranded DNA, one strand shown; matrix: in vitro; tested at: 600 nM; reading: higher = stronger binding
Target: Sal-like protein 4, full length isoform A (SALL4, Homo sapiens, UniProt Q9UJQ4, residues 1-1053)
Sequence of UniProt Q9UJQ4 (whole entry, looked up): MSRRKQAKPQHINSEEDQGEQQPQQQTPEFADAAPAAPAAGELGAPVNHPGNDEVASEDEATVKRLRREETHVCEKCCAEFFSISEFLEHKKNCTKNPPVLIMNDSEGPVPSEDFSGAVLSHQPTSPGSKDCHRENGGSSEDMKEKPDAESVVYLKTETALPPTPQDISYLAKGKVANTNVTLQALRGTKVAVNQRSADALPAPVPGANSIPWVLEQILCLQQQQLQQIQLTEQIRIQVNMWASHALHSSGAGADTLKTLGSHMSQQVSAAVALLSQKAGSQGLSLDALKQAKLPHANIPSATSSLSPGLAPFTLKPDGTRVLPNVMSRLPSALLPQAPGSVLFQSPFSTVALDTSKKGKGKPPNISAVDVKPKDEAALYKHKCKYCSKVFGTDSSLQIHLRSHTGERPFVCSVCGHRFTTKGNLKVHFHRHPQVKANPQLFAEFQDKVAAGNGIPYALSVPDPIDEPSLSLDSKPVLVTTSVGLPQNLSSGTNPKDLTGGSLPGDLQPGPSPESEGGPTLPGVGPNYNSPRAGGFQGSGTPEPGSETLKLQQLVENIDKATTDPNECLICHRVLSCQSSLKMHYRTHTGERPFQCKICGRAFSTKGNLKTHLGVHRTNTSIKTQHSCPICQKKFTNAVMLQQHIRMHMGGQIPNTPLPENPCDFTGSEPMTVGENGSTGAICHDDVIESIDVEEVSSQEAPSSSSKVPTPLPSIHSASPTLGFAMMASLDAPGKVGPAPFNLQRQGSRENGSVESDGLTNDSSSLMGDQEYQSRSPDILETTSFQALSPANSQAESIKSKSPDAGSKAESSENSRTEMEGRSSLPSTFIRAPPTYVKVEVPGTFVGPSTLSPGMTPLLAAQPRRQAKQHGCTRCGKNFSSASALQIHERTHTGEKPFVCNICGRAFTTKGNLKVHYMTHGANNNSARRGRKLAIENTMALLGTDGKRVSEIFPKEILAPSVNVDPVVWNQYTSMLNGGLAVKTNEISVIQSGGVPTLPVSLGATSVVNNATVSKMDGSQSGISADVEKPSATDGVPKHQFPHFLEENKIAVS
Setting: 8-mer, flanks averaged, mean of replicates
Sequence	E-score
AGCTAGAG	-0.0431
AAGTCACG	-0.049
ATTGGGTC	-0.134
GCGAGCGA	-0.187
CCACCCTA	-0.129
CAGCAAGA	0.0563
GCTACCAA	0.0536
AAAGCGGG	-0.111
CGGTGCTA	-0.161

Further values, each from its own experiment
Substance	target	assay	test system	setting	how to read	measurement	result
PhoQ, residues 284 288 289 292 302 303 SSTLSG	PhoP, residues 12 14 15 18 19 YHFSH (Escherichia coli, UniProt P23836)	Sort-seq, measured: YFP reporter	E. coli	PhoQ-PhoP variant library, with: 10 µM Mg2+	baseline: high Mg2+ state, higher = stronger signaling	fold induction	3.89

A few entries again (block 2):
Sequence	fitted relative affinity
GACGATTTCGACACTGGGGACGTGCTA	1.25 z-score
TCATACCTCATCTTCCTCACTGTGCTA	0.769 z-score
TTCTACTTCTCTTTTTGCTTGTGCTAG	2.98 z-score
